# Measurements pooled from the literature.
# Each line is one published result; not all experiments were run side by side.
# TDP1: Tyrosyl-DNA phosphodiesterase 1 (TDP1, Homo sapiens, UniProt Q9NUW8)
# UniProt Q9NUW8, sequence (whole entry, looked up): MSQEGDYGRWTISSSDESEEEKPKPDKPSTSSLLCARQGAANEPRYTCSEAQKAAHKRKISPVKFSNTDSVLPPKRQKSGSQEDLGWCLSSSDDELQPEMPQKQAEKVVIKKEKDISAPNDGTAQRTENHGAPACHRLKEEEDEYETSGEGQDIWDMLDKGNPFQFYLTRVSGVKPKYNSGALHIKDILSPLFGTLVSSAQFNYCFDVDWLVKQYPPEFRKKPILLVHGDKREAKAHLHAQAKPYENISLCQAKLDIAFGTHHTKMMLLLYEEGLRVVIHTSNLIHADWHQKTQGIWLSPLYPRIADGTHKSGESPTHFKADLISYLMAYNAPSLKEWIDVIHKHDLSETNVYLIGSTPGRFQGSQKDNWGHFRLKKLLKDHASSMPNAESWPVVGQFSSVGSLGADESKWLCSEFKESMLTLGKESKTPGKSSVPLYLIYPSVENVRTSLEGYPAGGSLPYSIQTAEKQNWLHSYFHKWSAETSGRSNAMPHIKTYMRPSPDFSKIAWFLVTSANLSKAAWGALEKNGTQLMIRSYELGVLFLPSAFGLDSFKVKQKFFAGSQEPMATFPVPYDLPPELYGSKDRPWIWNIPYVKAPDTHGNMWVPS
Compound,tested on,test,test system,conditions,how to read,endpoint,result
CO[C@@H]1OC[C@@H](O)[C@H](O)[C@H]1O,Helicobacter pylori,"microbial growth, broth dilution",,,,MIC,> 125 µg/mL
Cc1c(CN(C)C(=O)/C=C/c2cnc3c(c2)CC(N)C(=O)N3)oc2ccccc12 (stereo not shown),Acinetobacter baumannii,broth microdilution,AR-0288,,,MIC,32 µg/mL
Cc1ncsc1-c1ccc(C(C)NC(=O)C2CC(O)CN2C(=O)C(NC(=O)CCCCCCCCCCN2CCCC(Nc3ncc(Cl)c(Nc4ccccc4S(=O)(=O)C(C)C)n3)C2)C(C)(C)C)cc1 (stereo not shown),22Rv1,"RNA-seq, refers to: MAST4 mRNA",,concentration not given,relative to: DMSO,log2 fold change,-1.16
C=C(NC(=O)c1csc(-c2nc3c(cc2O)-c2nc(cs2)C(=O)NC(C(C)O)C(=O)NC(=C(C)OC)c2nc(cs2)C(=O)NC2c4nc(cs4)C(=O)NC(COC(=O)c4c5c6c(cccc6n4O)COC(=O)C(OC4CC(C)(O)C(N(C)C)C(C)O4)C2OC5)c2nc-3cs2)n1)C(N)=O (stereo not shown),Streptococcus pneumoniae,,"-4, penicillin-resistant",used for PK-PD modelling,,MIC,0.0156 µg/mL
Cn1nc(CSc2ccccc2)c(C=NOCc2ccc3nc(-c4ccccc4)c(Nc4ccc(C(=O)O)cc4)n3c2)c1Cl,TDP1,"enzyme activity, inhibitor",,"100 µM, unpurified compound",,inhibition,-2.3%
COC1C=COC2(C)Oc3c(C)c(O)c4c(c3C2=O)C2=NC3(CCN(CC(C)C)CC3)NC2=C(NC(=O)C(C)=CC=CC(C)C(O)C(C)C(O)C(C)C(OC(=O)Nc2cnccn2)C1C)C4=O (stereo not shown),Mycobacteroides abscessus,,ATCC 19977,single-strain MIC,,MIC,40 µg/mL
CC1C=CC=CC(C)C2C=CC3CC(C)(O)C(Cl)C(C)C3C2C(=O)C(Cl)(Cl)C(=O)C(C)C(=O)O1 (stereo not shown),Staphylococcus aureus,,MRSA clinical isolate,resistant OXA/CLI/ERY,,MIC,0.1 µg/mL
CCCCCC[N+](C)(C)CCCCCCCCCCOc1cc(OCCCCCCCCCC[N+](C)(C)CCCCCC)cc(OCCCCCCCCCC[N+](C)(C)CCCCCC)c1.[Br-].[Br-].[Br-],Enterococcus faecalis,,OG1RF,,,MIC,4 µM
O=C(O)c1ccc(Nc2c(-c3ccccc3)nc3ccc(CON=Cc4cc([N+](=O)[O-])ccc4N4CCN(c5ccccc5)CC4)cn23)cc1 (mixture of isomers),TDP1,"enzyme activity, inhibitor",,"100 µM, unpurified compound",,inhibition,2%
CCCCCCCCn1cc[n+](CCCCOc2cc(OCCCC[n+]3ccn(CCCCCCCC)c3)cc(OCCCC[n+]3ccn(CCCCCCCC)c3)c2)c1.[Br-].[Br-].[Br-],Enterococcus faecalis,,OG1RF,,,MIC,0.5 µM
C[C@@H]1C(=O)O[C@@H](C)/C=C/C=C\[C@@H](C)[C@@H]2C=C[C@@H]3C[C@@]4(C)O[C@H]4[C@@H](C)[C@H]3[C@@H]2C(=O)C(Cl)(Cl)C1=O,Staphylococcus aureus,,MRSA clinical isolate,"resistant: OXA,GEN",,MIC,0.1 µg/mL
CCCCCCCCn1cc[n+](CCCCCCCCOc2cc(OCCCCCCCC[n+]3ccn(CCCCCCCC)c3)cc(OCCCCCCCC[n+]3ccn(CCCCCCCC)c3)c2)c1.[Br-].[Br-].[Br-],Enterococcus faecalis,,OG1RF,,,MIC,2 µM
COC1CN([C@H]2CC[C@H]([C@@]3(C)Oc4c(Cl)cc(C(=O)NCc5c(SC)cc(C)[nH]c5=O)c(C)c4O3)CC2)C1,,"RNA-seq, refers to: HPGD","human, whole blood","dose not given, 24 h",relative to: pretreatment baseline,log2 fold change,2.69

# A few entries again:
Compound,tested on,test,test system,conditions,how to read,endpoint,result
CCCCCCCCn1cc[n+](CCCCOc2cc(OCCCC[n+]3ccn(CCCCCCCC)c3)cc(OCCCC[n+]3ccn(CCCCCCCC)c3)c2)c1.[Br-].[Br-].[Br-],Enterococcus faecalis,,OG1RF,,,MIC,0.5 µM
